{"data": "Results of several laboratories", "note": "Each numbered part is a random draw from the data of one study; scales do not carry over between parts. Changes are numbered by the printed parent chain.", "UniProt P42681, sequence (whole entry, looked up)": "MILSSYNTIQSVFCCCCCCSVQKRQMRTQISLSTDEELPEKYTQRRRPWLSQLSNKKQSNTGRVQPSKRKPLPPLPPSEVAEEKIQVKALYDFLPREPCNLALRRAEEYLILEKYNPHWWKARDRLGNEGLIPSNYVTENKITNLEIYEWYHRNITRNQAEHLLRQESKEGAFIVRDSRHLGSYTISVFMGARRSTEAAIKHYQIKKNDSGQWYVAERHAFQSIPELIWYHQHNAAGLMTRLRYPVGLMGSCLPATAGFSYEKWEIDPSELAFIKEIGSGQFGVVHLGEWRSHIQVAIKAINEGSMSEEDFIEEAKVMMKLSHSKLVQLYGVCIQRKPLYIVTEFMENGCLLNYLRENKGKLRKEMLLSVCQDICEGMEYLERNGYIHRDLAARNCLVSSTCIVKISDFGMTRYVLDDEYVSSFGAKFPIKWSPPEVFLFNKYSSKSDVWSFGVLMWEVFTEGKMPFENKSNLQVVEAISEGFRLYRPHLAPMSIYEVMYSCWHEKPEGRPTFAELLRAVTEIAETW", "UniProt Q96PY6, sequence (whole entry, looked up)": "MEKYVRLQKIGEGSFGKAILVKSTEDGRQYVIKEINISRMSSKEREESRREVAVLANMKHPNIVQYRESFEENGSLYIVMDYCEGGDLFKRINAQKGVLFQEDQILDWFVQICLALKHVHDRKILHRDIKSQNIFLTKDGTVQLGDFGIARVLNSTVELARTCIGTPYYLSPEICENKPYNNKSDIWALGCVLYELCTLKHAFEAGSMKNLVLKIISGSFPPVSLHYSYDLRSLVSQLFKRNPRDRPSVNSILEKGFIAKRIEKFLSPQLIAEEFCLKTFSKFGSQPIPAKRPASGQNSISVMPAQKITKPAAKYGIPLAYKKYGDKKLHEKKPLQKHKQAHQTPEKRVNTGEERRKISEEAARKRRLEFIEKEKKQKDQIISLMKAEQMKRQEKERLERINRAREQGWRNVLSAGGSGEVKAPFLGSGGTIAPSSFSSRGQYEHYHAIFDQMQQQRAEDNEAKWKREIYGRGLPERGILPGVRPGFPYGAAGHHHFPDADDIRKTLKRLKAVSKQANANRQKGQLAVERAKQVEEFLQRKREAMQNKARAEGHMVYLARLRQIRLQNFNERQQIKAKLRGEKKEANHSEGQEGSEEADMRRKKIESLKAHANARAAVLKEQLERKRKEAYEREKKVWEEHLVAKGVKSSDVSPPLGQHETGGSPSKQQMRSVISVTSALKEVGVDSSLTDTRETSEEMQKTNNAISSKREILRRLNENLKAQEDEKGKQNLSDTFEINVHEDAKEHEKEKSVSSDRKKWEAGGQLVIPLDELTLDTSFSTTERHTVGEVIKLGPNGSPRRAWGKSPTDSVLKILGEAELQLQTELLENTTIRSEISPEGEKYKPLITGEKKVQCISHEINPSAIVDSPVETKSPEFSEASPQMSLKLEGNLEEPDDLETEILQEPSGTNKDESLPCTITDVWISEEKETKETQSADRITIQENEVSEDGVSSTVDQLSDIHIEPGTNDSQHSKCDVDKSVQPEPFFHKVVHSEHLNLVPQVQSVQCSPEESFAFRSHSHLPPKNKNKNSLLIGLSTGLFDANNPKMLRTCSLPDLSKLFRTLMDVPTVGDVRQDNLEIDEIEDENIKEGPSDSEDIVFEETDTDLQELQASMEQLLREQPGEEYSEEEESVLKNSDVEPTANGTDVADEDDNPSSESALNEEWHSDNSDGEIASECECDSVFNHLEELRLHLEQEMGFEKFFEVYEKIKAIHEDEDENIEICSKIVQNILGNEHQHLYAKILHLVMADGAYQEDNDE", "UniProt P50750, sequence (whole entry, looked up)": "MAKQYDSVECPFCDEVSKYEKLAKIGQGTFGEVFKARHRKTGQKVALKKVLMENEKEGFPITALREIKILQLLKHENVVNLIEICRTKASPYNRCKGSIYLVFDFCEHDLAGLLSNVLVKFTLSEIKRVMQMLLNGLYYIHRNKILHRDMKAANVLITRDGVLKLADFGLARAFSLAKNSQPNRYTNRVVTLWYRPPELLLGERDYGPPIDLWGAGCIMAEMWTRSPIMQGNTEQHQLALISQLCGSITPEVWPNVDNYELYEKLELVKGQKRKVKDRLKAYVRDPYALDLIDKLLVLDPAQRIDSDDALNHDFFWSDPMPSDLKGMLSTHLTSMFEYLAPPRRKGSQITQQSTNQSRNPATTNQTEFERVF", "UniProt P07949, sequence (whole entry, unmodified, looked up)": "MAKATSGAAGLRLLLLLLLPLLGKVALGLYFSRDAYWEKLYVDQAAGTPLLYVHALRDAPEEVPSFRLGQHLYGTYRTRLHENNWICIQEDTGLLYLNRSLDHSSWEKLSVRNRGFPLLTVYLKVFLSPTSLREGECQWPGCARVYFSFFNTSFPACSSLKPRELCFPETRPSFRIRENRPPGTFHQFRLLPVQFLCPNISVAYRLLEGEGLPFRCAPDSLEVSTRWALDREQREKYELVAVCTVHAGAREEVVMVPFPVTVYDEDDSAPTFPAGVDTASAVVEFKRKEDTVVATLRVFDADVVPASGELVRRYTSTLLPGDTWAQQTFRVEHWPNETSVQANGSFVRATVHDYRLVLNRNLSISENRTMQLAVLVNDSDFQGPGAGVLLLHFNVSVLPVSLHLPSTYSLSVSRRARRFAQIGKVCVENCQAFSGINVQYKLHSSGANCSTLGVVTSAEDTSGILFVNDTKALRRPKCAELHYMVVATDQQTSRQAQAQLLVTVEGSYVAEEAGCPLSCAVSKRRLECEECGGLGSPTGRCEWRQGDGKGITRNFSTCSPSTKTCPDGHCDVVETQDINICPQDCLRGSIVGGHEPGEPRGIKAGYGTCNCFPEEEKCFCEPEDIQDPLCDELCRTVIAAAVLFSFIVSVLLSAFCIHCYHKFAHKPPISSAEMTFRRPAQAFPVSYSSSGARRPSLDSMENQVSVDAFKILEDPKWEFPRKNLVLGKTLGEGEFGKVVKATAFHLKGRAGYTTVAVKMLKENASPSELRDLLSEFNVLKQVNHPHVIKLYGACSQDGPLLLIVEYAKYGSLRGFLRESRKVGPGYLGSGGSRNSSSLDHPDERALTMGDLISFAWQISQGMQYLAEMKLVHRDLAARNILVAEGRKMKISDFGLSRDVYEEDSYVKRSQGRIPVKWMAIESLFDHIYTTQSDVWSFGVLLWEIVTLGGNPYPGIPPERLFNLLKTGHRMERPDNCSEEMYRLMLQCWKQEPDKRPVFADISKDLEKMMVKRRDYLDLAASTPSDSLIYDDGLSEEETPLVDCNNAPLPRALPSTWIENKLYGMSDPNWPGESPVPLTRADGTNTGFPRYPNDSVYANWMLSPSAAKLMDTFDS", "UniProt Q8N568, sequence (whole entry, looked up)": "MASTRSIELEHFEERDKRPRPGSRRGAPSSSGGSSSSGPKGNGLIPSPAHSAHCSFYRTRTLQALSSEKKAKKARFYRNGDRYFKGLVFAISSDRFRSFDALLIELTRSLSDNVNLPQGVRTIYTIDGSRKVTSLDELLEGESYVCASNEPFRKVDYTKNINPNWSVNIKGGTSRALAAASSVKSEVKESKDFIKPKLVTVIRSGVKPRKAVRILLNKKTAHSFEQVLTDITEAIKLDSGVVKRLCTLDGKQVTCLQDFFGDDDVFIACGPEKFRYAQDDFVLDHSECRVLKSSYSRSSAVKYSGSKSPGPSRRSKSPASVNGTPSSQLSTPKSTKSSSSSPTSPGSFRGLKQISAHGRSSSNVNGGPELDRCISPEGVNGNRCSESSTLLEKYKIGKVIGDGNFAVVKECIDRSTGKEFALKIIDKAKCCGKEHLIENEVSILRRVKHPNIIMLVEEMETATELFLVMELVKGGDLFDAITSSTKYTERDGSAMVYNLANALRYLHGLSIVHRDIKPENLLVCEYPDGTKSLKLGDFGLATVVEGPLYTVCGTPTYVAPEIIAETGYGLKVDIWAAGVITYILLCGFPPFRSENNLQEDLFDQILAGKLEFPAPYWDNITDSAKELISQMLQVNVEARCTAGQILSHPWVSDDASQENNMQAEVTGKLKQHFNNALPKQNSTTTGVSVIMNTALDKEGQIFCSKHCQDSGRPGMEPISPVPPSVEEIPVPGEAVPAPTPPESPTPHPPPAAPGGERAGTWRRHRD", "UniProt Q13237, sequence (whole entry, looked up)": "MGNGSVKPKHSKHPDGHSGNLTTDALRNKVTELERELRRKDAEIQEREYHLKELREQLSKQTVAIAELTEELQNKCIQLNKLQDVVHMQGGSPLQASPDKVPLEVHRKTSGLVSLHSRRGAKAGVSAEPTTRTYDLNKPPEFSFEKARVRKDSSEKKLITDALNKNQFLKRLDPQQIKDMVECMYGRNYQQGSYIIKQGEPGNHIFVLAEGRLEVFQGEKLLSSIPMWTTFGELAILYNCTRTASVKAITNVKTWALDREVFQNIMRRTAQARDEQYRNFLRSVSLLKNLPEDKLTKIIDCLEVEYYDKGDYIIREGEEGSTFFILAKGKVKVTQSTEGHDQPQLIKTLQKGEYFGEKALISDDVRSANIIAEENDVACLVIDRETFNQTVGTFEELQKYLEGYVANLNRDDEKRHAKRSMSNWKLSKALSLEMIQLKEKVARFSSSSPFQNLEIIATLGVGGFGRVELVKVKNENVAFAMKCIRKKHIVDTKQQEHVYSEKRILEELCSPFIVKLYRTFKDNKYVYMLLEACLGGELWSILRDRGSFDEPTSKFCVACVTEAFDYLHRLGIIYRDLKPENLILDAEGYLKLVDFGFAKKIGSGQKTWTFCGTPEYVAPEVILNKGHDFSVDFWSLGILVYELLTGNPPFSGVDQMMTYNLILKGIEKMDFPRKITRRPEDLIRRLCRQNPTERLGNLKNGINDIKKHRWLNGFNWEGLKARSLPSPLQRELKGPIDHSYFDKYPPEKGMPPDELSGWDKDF"}
{"data": "Sample 1", "SMILES": "c1ccc(N2CCN(Cc3nc4ccccc4[nH]3)CC2)nc1", "method": "competition with immobilised ligand", "tested at": "1 µM"}
{"target": "RET (Homo sapiens, UniProt P07949, V804M)", "read-out": "cell-free assay", "remaining binding": "100%"}
{"target": "IRAK3 (Homo sapiens, UniProt Q9Y616)", "read-out": "binding", "remaining binding": "100%"}
{"target": "NEK1 (Homo sapiens, UniProt Q96PY6)", "read-out": "binding", "remaining binding": "100%"}
{"target": "TBK1 (Homo sapiens, UniProt Q9UHD2)", "read-out": "binding", "remaining binding": "77%"}
{"target": "IGF1R (Homo sapiens, UniProt P08069)", "read-out": "cell-free assay", "remaining binding": "100%"}
{"data": "Sample 2", "Compound": "COc1cc2ncnc(N3CCN(C(=O)Nc4ccc(Oc5ccccc5)cc4)CC3)c2cc1OC", "read-out": "enzyme activity", "mode": "inhibitor", "tested at": "0.5 µM", "reference": "control"}
{"target": "DCLK2 (Homo sapiens, UniProt Q8N568)", "remaining activity [%]": 90.6}
{"target": "Myosin-IIIb (MYO3B, Homo sapiens, UniProt Q8WXR4)", "remaining activity [%]": 95.4}
{"target": "PRKG2 (Homo sapiens, UniProt Q13237)", "remaining activity [%]": 97.5}
{"target": "MAPK14 (Homo sapiens, UniProt Q16539)", "remaining activity [%]": 81}
{"target": "Cyclin-dependent kinase 1, with cyclin A (CDK1, Homo sapiens, UniProt P06493)", "remaining activity [%]": 92.3}
{"target": "MAP2K1 (Homo sapiens, UniProt Q02750)", "remaining activity [%]": 91.2}
{"target": "CLK4 (Homo sapiens, UniProt Q9HAZ1)", "remaining activity [%]": 65.6}
{"target": "ROCK1 (Homo sapiens, UniProt Q13464)", "remaining activity [%]": 86}
{"target": "TXK (Homo sapiens, UniProt P42681)", "remaining activity [%]": 99.3}
{"target": "CAMK4 (Homo sapiens, UniProt Q16566)", "remaining activity [%]": 102}
{"target": "Cyclin-dependent kinase 9, with cyclin K (CDK9, Homo sapiens, UniProt P50750)", "remaining activity [%]": 83.6}
{"target": "TLK2 (Homo sapiens, UniProt Q86UE8)", "remaining activity [%]": 94.7}
{"target": "MAPK1 (Homo sapiens, UniProt P28482)", "remaining activity [%]": 83.9}
{"target": "PLK3 (Homo sapiens, UniProt Q9H4B4)", "remaining activity [%]": 91.8}
{"data": "Sample 3", "target": "CREB3L3, bZIP domain (human)", "method": "DHFR protein complementation", "matrix": "yeast", "setting": "single substitutions, most at no-binding floor", "reference": "wild-type JUN-FOS pair", "reading": "higher = stronger binding", "starting sequence": "JUN, bZIP domain (human); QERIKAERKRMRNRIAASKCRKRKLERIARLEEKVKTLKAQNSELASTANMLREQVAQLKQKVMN; partner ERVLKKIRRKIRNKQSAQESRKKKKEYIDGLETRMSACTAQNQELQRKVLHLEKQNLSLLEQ"}
{"Substitution": "T48E", "binding fitness": "-1.33 natural log"}
{"Substitution": "K34V", "binding fitness": "-1.48 natural log"}
{"Substitution": "I28V", "binding fitness": "-1.38 natural log"}
{"Substitution": "K39E", "binding fitness": "-1.48 natural log"}
{"Substitution": "L38F", "binding fitness": "-1.51 natural log"}
{"Substitution": "N42A", "binding fitness": "-1.38 natural log"}
{"Substitution": "A40F", "binding fitness": "-1.22 natural log"}
{"Substitution": "A40V", "binding fitness": "-1.39 natural log"}
{"data": "Mixed results", "method": "cross-linking MS"}
{"Molecule": "RRP8 (Homo sapiens, UniProt O43159)", "partner": "HNRNPA1 (Homo sapiens, UniProt P09651)", "matrix": "cell fractions", "added": "DSSO", "endpoint": "cross-linked residues", "value": "S80 to K350"}
{"Molecule": "TIMM8B (Homo sapiens, UniProt Q9Y5J9)", "partner": "TIMM13 (Homo sapiens, UniProt Q9Y5L4)", "matrix": "cell fractions", "added": "DSSO", "endpoint": "cross-linked residues", "value": "K43 to K64"}
{"Molecule": "SF3B3 (Homo sapiens, UniProt Q15393)", "partner": "PHF5A (Homo sapiens, UniProt Q7RTV0)", "setting": "hits only", "endpoint": "interaction screen", "value": "cross-linked"}
{"Molecule": "NUP62 (Homo sapiens, UniProt P37198)", "partner": "NUP188 (Homo sapiens, UniProt Q5SRE5)", "matrix": "cell fractions", "added": "DSSO", "endpoint": "cross-linked residues", "value": "S418 to K109"}
{"note": "Repeated from above (sample 2):"}
{"target": "TXK (Homo sapiens, UniProt P42681)", "remaining activity [%]": 99.3}
{"target": "PRKG2 (Homo sapiens, UniProt Q13237)", "remaining activity [%]": 97.5}
{"target": "MAPK1 (Homo sapiens, UniProt P28482)", "remaining activity [%]": 83.9}
{"target": "CAMK4 (Homo sapiens, UniProt Q16566)", "remaining activity [%]": 102}
